# Experimental data of several laboratories.
# A part holds a random share of what one study measured. Substitutions count along the parent as printed.

# Sample 1
# Target: RING finger protein unkempt homolog, zinc fingers 1-6, SBP tag (UNK, Homo sapiens, UniProt Q9C0B0, residues 30-357)
# UniProt Q9C0B0, sequence (30-357, looked up): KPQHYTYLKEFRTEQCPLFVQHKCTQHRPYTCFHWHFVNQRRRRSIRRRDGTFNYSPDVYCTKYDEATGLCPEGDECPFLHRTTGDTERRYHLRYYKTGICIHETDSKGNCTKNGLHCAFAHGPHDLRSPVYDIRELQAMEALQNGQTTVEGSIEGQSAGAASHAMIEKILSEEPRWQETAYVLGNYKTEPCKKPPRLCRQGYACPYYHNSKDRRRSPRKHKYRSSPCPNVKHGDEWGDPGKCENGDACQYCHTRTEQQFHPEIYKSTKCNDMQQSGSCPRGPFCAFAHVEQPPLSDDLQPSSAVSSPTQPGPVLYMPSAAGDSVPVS
# Technique: RNA Bind-n-Seq
# Molecule type: RNA
# Sample: in vitro
# Tested at: 100 nM
# Setting: RNA with constant flanks, vertebrate orthologous sites, ends assumed
# Baseline: input RNA pool
# Direction: higher = stronger binding
# Shared flanks, not repeated: GGGAGUUCUACAGUCCGACGAUC … CAACAGAGGAUUGAGCAUCA
Oligonucleotide,bound/input enrichment
UCCUCAACCUGUUCUAGCUUGUGAUCCUUCAAAGUUGGGUCACACAUUAGUGCUAGAUACUAGAAAUUUUCACUUUUCCAUUGAUCAGAGAGACAGACAUUAAAAACAAAAAUAAAGGAA,2.04 ratio
AAGAACUCUUGCAGUCUUAGAUGUUAUAAAAAAUAUAUAUAUCUGAAUUGUAAGAGUUGUUAGCACAGGUUUUUUUCUUUUUUUUUUAAAGCACUUGUUUUGGGUACAAGGCAUGUCUGA,0.365 ratio
GCUCUAGUUCUUAACAACCGACACUCCUAAAAGAUUUAGAAAAAAGUUUACAACAUAAUCUAGUUUACAGAAAAAUCUUGUGCUAGAAUACUUUUUAAAAGGUAUUUUGAAUACGAUUAA,0.715 ratio
UUUGUGGGGAUCGGGGGGUGGGAAGAAGAUGUAUGGAUGUUAUUGGCAUUUUUAAAUGUUCAGAGGUUUUUGUUUUGUUUUGUUUUGUUUUGUUUUGUUUUGUUUCUUCUGUUUUGUUUU,1.03 ratio
GCCAUUUUUUUUCCACGUUUUCUGUAAAUAAUGGAUAAUCAUUUUUAAAAAUUUUAUUUUUAGUGCUGUUUUAGCAAUGUGGAUAGAUCAUAAAUGUACUUGCUGAAUUCAAUCAUUUUU,0.279 ratio
UUACAGUCAUUGAUGGACUCUAUUUUUUUAUUAUUACUUGGACCUUGGUCGUUUUUAUACUAGCAACAAAAAUGGUUUUGUUUCUGUUCUUUUUUUUUUGUUUGUUUUUUUUCCUUCUUU,1.28 ratio
AUUUAAAAUGUGUUCAGUUAUAUUUAAUGAUCUCAUUCCUGAGUUCCUAUUUCAUUAAAGUAGCUUCCAUUUCUAUUUCCACAGUUAUGAAUAAAUAGAAGGUUUAUGCCAGUAGACACU,0.225 ratio
AAAUCAAUAGAAUUACAUAAUACUAAAGUUACAGUUGAAAGGUAUCCAAGUAUGUGUUCGUAGUUACUAAAAAAAAUUAUAGCUGUUAUUGCCUUGUGUUUAUAGCCCUUGUUUCAGGUU,2.73 ratio

# Sample 2
# Target: Prothrombin, mature alpha-thrombin (F2, Homo sapiens, UniProt P00734)
# Technique: aptamer microarray, sandwich
# Molecule type: DNA with 2'F-ANA
# Sample: in vitro
# Tested at: 200 nM
# Setting: whole 15-mer aptamer, many near background
# Together with: Cy3 exosite-II aptamer, 400 nM
# Direction: higher = stronger binding
# Oligonucleotide: GGTTGGTGTGGTTGG
Modification,mean fluorescence intensity [a.u.]
2'F-ANA at 2 4 5 7 8 14 15,50.9
2'F-ANA at 1 2 5 9 10 12 15,55.3
2'F-ANA at 1 2 3 4 5 8 12,125
2'F-ANA at 1 3 4 7 9 10 14 15,54.2
2'F-ANA at 1 2 3 9 10 11 14 15,53.5
2'F-ANA at 2 3 4 9 10 11 15,238
2'F-ANA at 1 5 8 9 10 13 14 15,60
2'F-ANA at 1 3 4 5 6 7 10 13 14 15,45.6
2'F-ANA at 1 4 5 9 13 14,41.7
2'F-ANA at 1 4 6 8 9 11 13 15,75.4
2'F-ANA at 1 3 4 6 7 8 9 10 11 14,52.3
2'F-ANA at 3 5 6 7 9 12 13,141
2'F-ANA at 5 7 8 9 11,83.4
2'F-ANA at 1 2 4 5 6 8 9 14 15,51.9
2'F-ANA at 3 9 11 12 15,1250
2'F-ANA at 3 5 6 7 9 11 14 15,53
2'F-ANA at 1 2 4 6 11 13 14 15,110
2'F-ANA at 2 3 4 6 7 9 11 12 13 14,197
2'F-ANA at 2 3 5 6 8 10 11 12 13 15,58
2'F-ANA at 1 5 7 9 12,132
2'F-ANA at 2 4 6 8 9 11 14,75.6
2'F-ANA at 2 3 8 12 13 15,908
2'F-ANA at 1 3 7 9 11 12 13 15,361

# Sample 3
# Target: CCND2, cyclin fold, Cln2 fusion (human)
# Technique: yeast growth competition, sequencing
# Sample: yeast
# Setting: weak parent motif
# Baseline: not given
# Direction: higher = stronger binding
# Starting sequence: RP1L1 docking peptide (human); TLGLGPLSFTLED; partner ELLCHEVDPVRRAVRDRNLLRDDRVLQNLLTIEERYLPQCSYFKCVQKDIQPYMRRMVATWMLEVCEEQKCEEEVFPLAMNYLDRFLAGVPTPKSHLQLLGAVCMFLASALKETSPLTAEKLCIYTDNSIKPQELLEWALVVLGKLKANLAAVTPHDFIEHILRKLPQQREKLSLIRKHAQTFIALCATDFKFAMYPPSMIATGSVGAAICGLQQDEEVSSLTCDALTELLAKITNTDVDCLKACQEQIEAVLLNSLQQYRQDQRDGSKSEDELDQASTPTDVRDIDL
Change,normalised enrichment score
P6A,-0.0615
T1A,-0.288
S8A,0.0242
L7A,-0.00996
G5A,-0.0229
L2A,-0.104

# Sample 4
# Molecule: PhoQ, residues 284 288 289 292 302 303 ASTSDA
# Technique: Sort-seq
# Measured: YFP reporter
# Sample: E. coli
# Setting: PhoQ-PhoP variant library
# Together with: 10 µM Mg2+
# Baseline: high Mg2+ state
# Direction: higher = stronger signaling
target,fold induction
"PhoP, residues 12 14 15 18 19 LHTVL (Escherichia coli, UniProt P23836)",14.1
"PhoP, residues 12 14 15 18 19 NQCAL (Escherichia coli, UniProt P23836)",9.82
"PhoP, residues 12 14 15 18 19 TQAML (Escherichia coli, UniProt P23836)",12.9

# Sample 5
# Target: TAR DNA-binding protein 43, full length, His tag (TARDBP, Homo sapiens, UniProt Q13148, residues 1-414)
# Technique: RNA Bind-n-Seq
# Molecule type: RNA
# Sample: in vitro
# Tested at: 20 nM
# Setting: 6-mer, flanks averaged, single round
# Together with: 150 mM LiCl
# Baseline: input library
# Direction: higher = stronger binding
Oligonucleotide,6-mer enrichment (R)
CCACCC,1.11
UUCAGA,0.827
AUGCCG,0.915
UCAUCG,0.82
UCGGGA,0.954
AGAGUA,0.972
GUUCCG,0.93
AGGUGC,1.05
UGACGC,0.929
AGCUAG,0.892
UAACGC,0.825
GACUCA,0.855
UCCUGU,0.963
UCAACU,0.819
UCACUU,0.904
CCGAGG,0.991
CCCAUC,0.97
UGCUGG,1.07
GUCAUA,0.89
CAACCU,0.843
AUAGUU,0.964
AUAGGU,0.981
CAUACG,0.811
GCGCUA,0.942
AAUCUU,0.913

# For quick reference, copied from above (sample 5):
Oligonucleotide,6-mer enrichment (R)
UCAACU,0.819
UCACUU,0.904
CCGAGG,0.991
CCCAUC,0.97
UGCUGG,1.07
GUCAUA,0.89
CAACCU,0.843
